Experimental data from different studies.
Each line is one published result; not all experiments were run side by side. ± marks the error that the study gave. Values after ≈ are worked out from the molar mass of the structure shown. Bridge positions count the residues as written; N and C are the ends. Ends that are not written are not given here. * marks the point of attachment.
Organism: Escherichia coli

CC(C)C[C@H](NC(=O)[C@H](C)NC(=O)[C@H](CC(C)C)NC(=O)[C@H](CCCCN)NC(=O)[C@H](CCCCN)NC(=O)[C@H](Cc1c[nH]c2ccccc12)NC(=O)[C@H](CC(C)C)NC(=O)[C@H](CC(C)C)NC(=O)[C@H](C)NC(=O)[C@H](CC(C)C)NC(=O)[C@H](CCCCN)NC(=O)[C@H](CCCCN)NC(=O)[C@H](CC(C)C)NC(=O)[C@H](C)NC(=O)[C@H](CC(C)C)NC(=O)[C@H](C)NC(=O)[C@H](CC(C)C)NC(=O)[C@H](CCCCN)NC(=O)[C@@H](N)CCCCN)C(=O)N[C@@H](C)C(=O)N[C@@H](CC(C)C)C(=O)N[C@@H](CCCCN)C(=O)N[C@@H](CCCCN)C(=O)N[C@@H](C)C(N)=O — MIC50 (broth microdilution; NCTC 9001; overnight, 37 °C): 2.95 ± 0.06 µM
CC[C@H](C)[C@H](NC(=O)CNC(=O)[C@H](CC(=O)O)NC(=O)[C@H](CCCNC(=N)N)NC(=O)[C@@H](NC(=O)[C@H](CC(N)=O)NC(=O)[C@H](CCC(N)=O)NC(=O)CNC(=O)[C@@H](NC(=O)[C@H](CCCCN)NC(=O)[C@H](CCC(=O)O)NC(=O)[C@@H](NC(=O)[C@H](CCCCN)NC(=O)[C@H](CCCCN)NC(=O)[C@H](Cc1ccccc1)NC(=O)[C@H](CC(C)C)NC(=O)[C@H](CCCCN)NC(=O)[C@H](Cc1c[nH]c2ccccc12)NC(=O)[C@@H](N)CCCCN)[C@@H](C)CC)C(C)C)[C@@H](C)CC)C(=O)N[C@H](C(=O)N[C@@H](CCCCN)C(=O)N[C@@H](C)C(=O)NCC(=O)N1CCC[C@H]1C(=O)N[C@@H](C)C(=O)N[C@H](C(=O)N[C@@H](C)C(=O)N[C@H](C(=O)N[C@H](C(=O)NCC(=O)N[C@@H](CCC(N)=O)C(=O)N[C@@H](C)C(=O)N[C@H](C(=O)N[C@@H](CCC(N)=O)C(=O)N[C@H](C(=O)N[C@@H](C)C(=O)N[C@@H](CCCCN)C(N)=O)[C@@H](C)CC)[C@@H](C)O)C(C)C)C(C)C)C(C)C)[C@@H](C)CC — MBC (DH5α; 24 h, 37 °C): 20 µM (≈ 80.1 µg/mL)
CC(C)C[C@H](NC(=O)[C@H](C)NC(=O)[C@H](CCCCN)NC(=O)[C@H](Cc1c[nH]c2ccccc12)NC(=O)[C@H](CC(C)C)NC(=O)[C@H](CC(C)C)NC(=O)[C@H](C)NC(=O)[C@H](CC(C)C)NC(=O)[C@H](CCCCN)NC(=O)[C@H](C)NC(=O)[C@@H]1CCCN1C(=O)[C@H](C)NC(=O)[C@H](CC(C)C)NC(=O)[C@H](CCCCN)NC(=O)[C@H](CC(C)C)NC(=O)[C@H](CCCCN)NC(=O)[C@@H](N)CCCCN)C(=O)N[C@@H](C)C(=O)N[C@@H](CC(C)C)C(=O)N[C@@H](CCCCN)C(=O)N[C@@H](CC(C)C)C(=O)N[C@@H](CCCCN)C(=O)N[C@@H](CCCCN)C(=O)N[C@@H](C)C(N)=O — MIC50 (broth microdilution; NCTC 9001; overnight, 37 °C): 0.79 ± 0.41 µM
NC[C@@H]1O[C@H](O[C@H]2[C@@H](O)[C@H](O[C@@H]3[C@@H](O)[C@H](N)C[C@H](N)[C@H]3O[C@H]3O[C@H](CN)[C@@H](O)[C@H](O)[C@H]3N)O[C@@H]2CNC(=O)Cc2ccc3ccc4cccc5ccc2c3c45)[C@H](N)[C@@H](O)[C@@H]1O — IC50 (protein translation; S30 cell-free extract): ~1.2 µM
C[n+]1cc(-c2ccc3ccccc3n2)cc2ccccc21 — IC50 (lacZ reporter expression; VirF-independent lacZ control; 3 h, 37 °C, 6.2% DMSO, with: 1 mM IPTG): > 100 µM
GIGKWLHSAKKFGKAFVGEIMNS-NH2 (C-amide) — MIC50 (bacterial growth, broth microdilution; peptide, NCTC 9001, Mueller-Hinton broth; overnight, 37 °C): 4.21 ± 1.29 µg/mL
CC(=O)NC(C)(C)C(=O)N1CCC[C@H]1C(=O)NC(C)(C)C(=O)N[C@@H](C)C(=O)NC(C)(C)C(=O)N[C@@H](C)C(=O)N[C@@H](CCC(N)=O)C(=O)NC(C)(C)C(=O)N[C@H](C(=O)NC(C)(C)C(=O)NCC(=O)N[C@@H](CC(C)C)C(=O)NC(C)(C)C(=O)N1CCC[C@H]1C(=O)N[C@H](C(=O)NC(C)(C)C(=O)NC(C)(C)C(=O)N[C@@H](CCC(=O)O)C(=O)N[C@@H](CCC(N)=O)C(=O)N[C@H](CO)Cc1ccccc1)C(C)C)C(C)C — MBC (K-12 sample A (CGSC sample B)): 10 µM (≈ 19.6 µg/mL)
CC(C)C[C@H](NC(=O)[C@H](C)NC(=O)[C@H](CCCCN)NC(=O)[C@H](Cc1c[nH]c2ccccc12)NC(=O)[C@H](CC(C)C)NC(=O)[C@H](CC(C)C)NC(=O)[C@H](C)NC(=O)[C@@H]1CCCN1C(=O)[C@H](CCCCN)NC(=O)[C@H](C)NC(=O)[C@H](CC(C)C)NC(=O)[C@H](C)NC(=O)[C@H](CC(C)C)NC(=O)[C@H](CCCCN)NC(=O)[C@H](CC(C)C)NC(=O)[C@H](CCCCN)NC(=O)[C@@H](N)CCCCN)C(=O)N[C@@H](C)C(=O)N[C@@H](CC(C)C)C(=O)N[C@@H](CCCCN)C(=O)N[C@@H](CC(C)C)C(=O)N[C@@H](CCCCN)C(=O)N[C@@H](CCCCN)C(=O)N[C@@H](C)C(N)=O — MIC50 (broth microdilution; TOP10; overnight, 37 °C): 0.45 ± 0.24 µM
N=C(N)c1ccc(OCCCCCOc2ccc(C(=N)N)cc2)cc1 — FICI (checkerboard; BW25113 mcr-1 plasmid; unit not given, with: rifampicin; lower = stronger synergy): ≤ 0.25
CC[C@H](C)[C@H](NC(=O)[C@H](CCCNC(=N)N)NC(=O)[C@@H](N)CCCNC(=N)N)C(=O)N[C@@H](CCCNC(=N)N)C(=O)N1CCC[C@H]1C(=O)N[C@@H](CCCNC(=N)N)C(=O)N1CCC[C@H]1C(=O)N1CCC[C@H]1C(=O)N[C@@H](CCCNC(=N)N)C(=O)N[C@@H](CC(C)C)C(=O)N1CCC[C@H]1C(=O)N[C@@H](CCCNC(=N)N)C(=O)N1CCC[C@H]1C(=O)N[C@@H](CCCNC(=N)N)C(=O)N1CCC[C@H]1C(=O)N[C@@H](CCCNC(=N)N)C(=O)N1CCC[C@H]1C(=O)N[C@@H](CC(C)C)C(=O)N1CCC[C@H]1C(=O)N[C@@H](Cc1ccccc1)C(=O)N1CCC[C@H]1C(=O)N[C@@H](CCCNC(=N)N)C(=O)N1CCC[C@H]1C(=O)NCC(=O)N1CCC[C@H]1C(=O)N[C@@H](CCCNC(=N)N)C(=O)N1CCC[C@H]1C(=O)N[C@H](C(=O)N1CCC[C@H]1C(=O)N[C@@H](CCCNC(=N)N)C(=O)N1CCC[C@H]1C(=O)N[C@@H](CC(C)C)C(=O)N1CCC[C@H]1C(=O)N[C@@H](Cc1ccccc1)C(=O)N1CCC[C@H]1C(=O)O)[C@@H](C)CC — MIC (alamarBlue; SQ110 LptD defective; overnight, 37 °C): 0.75 µM (≈ 3.16 µg/mL)
CC(C)C[C@H](NC(=O)[C@H](C)NC(=O)[C@H](CC(C)C)NC(=O)[C@H](CCCCN)NC(=O)[C@H](CC(C)C)NC(=O)[C@H](CCCCN)NC(=O)[C@@H](N)CCCCN)C(=O)N[C@@H](C)C(=O)N[C@@H](CCCCN)C(=O)N[C@@H](CC(C)C)C(=O)N[C@@H](C)C(=O)N1CCC[C@H]1C(=O)N[C@@H](CC(C)C)C(=O)N[C@@H](Cc1c[nH]c2ccccc12)C(=O)N[C@@H](CCCCN)C(=O)N[C@@H](C)C(=O)N[C@@H](CC(C)C)C(=O)N[C@@H](C)C(=O)N[C@@H](CC(C)C)C(=O)N[C@@H](CCCCN)C(=O)N[C@@H](CC(C)C)C(=O)N[C@@H](CCCCN)C(=O)N[C@@H](CCCCN)C(=O)N[C@@H](C)C(N)=O — MIC50 (broth microdilution; NCTC 9001; overnight, 37 °C): 0.48 ± 0.2 µM
CC(C)C[C@H](NC(=O)[C@H](CCCNC(=N)N)NC(=O)[C@H](CCCCN)NC(=O)[C@@H](N)Cc1c[nH]c2ccccc12)C(=O)N[C@@H](CCCNC(=N)N)C(=O)N[C@@H](Cc1c[nH]c2ccccc12)C(=O)N[C@@H](CCCNC(=N)N)C(=O)N[C@@H](CCCNC(=N)N)C(=O)N[C@@H](Cc1ccccc1)C(=O)N[C@@H](Cc1ccccc1)C(=O)O — EC50 (bacterial killing, colony count; BL21; 1 h, pH 7, 37 °C): 3.1 µg/mL (≈ 2 µM)
Myristoyl-SCLPKEEQIGKSTRGRKCRRKK (disulfide 2-18 (inferred)) (N-myristoyl, disulfide; Myristoyl = CCCCCCCCCCCCCC(=O)*) — antibacterial activity (K-12 sample A (CGSC sample B); MBC, 2 h, pH 7.4, 37 °C, with: E. coli K-235 LPS at peptide:LPS 1:5 w/w): inhibited
CC(C)C[C@H](NC(=O)[C@H](C)NC(=O)[C@H](CC(C)C)NC(=O)[C@H](CCCCN)NC(=O)[C@H](CCCCN)NC(=O)[C@H](Cc1c[nH]c2ccccc12)NC(=O)[C@H](CC(C)C)NC(=O)[C@@H]1CCCN1C(=O)[C@H](C)NC(=O)[C@H](CC(C)C)NC(=O)[C@H](CCCCN)NC(=O)[C@H](CCCCN)NC(=O)[C@H](CC(C)C)NC(=O)[C@H](C)NC(=O)[C@H](CC(C)C)NC(=O)[C@H](C)NC(=O)[C@H](CC(C)C)NC(=O)[C@H](CCCCN)NC(=O)[C@@H](N)CCCCN)C(=O)N[C@@H](C)C(=O)N[C@@H](CC(C)C)C(=O)N[C@@H](CCCCN)C(=O)N[C@@H](CCCCN)C(=O)N[C@@H](C)C(N)=O — MIC50 (broth microdilution; TOP10; overnight, 37 °C): 0.68 ± 0.14 µM
CN(C)[C@@H]1C(O)=C(C(N)=O)C(=O)[C@@]2(O)C(O)=C3C(=O)c4c(O)cccc4[C@@](C)(O)[C@H]3C[C@@H]12 — MIC fold increase (wild type; evolution over 160 generations; reference: ancestor strain): 40 fold
CCCCN1C=C(c2ccc3ccccc3n2)C(C)c2ccccc21 (stereo not drawn) — IC50 (lacZ reporter expression; VirF-independent lacZ control; 3 h, 37 °C, 6.2% DMSO, with: 1 mM IPTG): > 100 µM
LLGDFFRKSKEKIGKEFKRIVQRIKDFLRNLVPRTESGY (LL-37-Gly-Tyr; also: 125I label, place not given here) — binding density (peptide; 5 µg/mL, 20 min, 22 °C): 1.4 ± 0.1 fg/µm²
CC[C@H](C)[C@H](N)C(=O)N[C@@H](CC(C)C)C(=O)N1CCC[C@H]1C(=O)N[C@@H](Cc1c[nH]c2ccccc12)C(=O)N[C@@H](CCCCN)C(=O)N[C@@H](Cc1c[nH]c2ccccc12)C(=O)N1CCC[C@H]1C(=O)N[C@@H](Cc1c[nH]c2ccccc12)C(=O)N[C@@H](Cc1c[nH]c2ccccc12)C(=O)N1CCC[C@H]1C(=O)N[C@@H](Cc1c[nH]c2ccccc12)C(=O)N[C@@H](CCCNC(=N)N)C(=O)N[C@@H](CCCNC(=N)N)C(N)=O — MIC90 (broth microdilution; 18 h, 30 clinical isolates): 4 µg/mL (≈ 2.1 µM)
